Measurements of several laboratories.
Lines come from different studies, so protocols differ. Several values in a cell are separate wells, animals, samples, runs or records. ± gives the spread as reported.

| Substance | assay | system | conditions | scale | measurement | value |
| --- | --- | --- | --- | --- | --- | --- |
| CC[C@H](C)[C@H](NC(=O)[C@H](CO)NC(=O)[C@H](C)NC(=O)[C@@H](NC(=O)CNC(=O)[C@H](CO)NC(=O)[C@@H](NC(=O)[C@@H](NC(=O)[C@H](Cc1c[nH]cn1)NC(=O)[C@@H]1CCCN1C(=O)[C@@H](NC(=O)[C@H](CC(C)C)NC(=O)[C@H](CO)NC(=O)[C@H](CC(C)C)NC(=O)[C@@H](N)Cc1ccccc1)[C@@H](C)CC)[C@@H](C)CC)C(C)C)C(C)C)C(=O)N[C@@H](C)C(=O)N[C@@H](CCCCN)C(=O)N[C@@H](Cc1c[nH]cn1)C(=O)N[C@@H](Cc1ccccc1)C(N)=O | UPLC-MS/MS | rat plasma | 1.6 µg/mL, three freeze-thaw cycles | – | concentration found | 1580 ng/mL |
| CC(=O)CO | – | glycerol | dermal, toxicity-qualified | – | specification limit | 180 µg/mL |
| COc1ccc(C[C@@H]2NC(=O)[C@H]([C@@H](C)O)NC(=O)[C@@H]3[C@@H]4CCN3C(=O)[C@@H]3Cc5cn(c6ccc(F)cc56)CCCCCCN(Cc5ccc(cc5)CCNC(=O)[C@]5(C)CCCN5C2=O)C(=O)CCC(=O)N[C@@H](C)C(=O)N[C@H](CNC(=O)CCCCC[N+](C)(C)C)C(=O)N[C@@H](Cc2cccc(c2)CNC(=O)CO4)C(=O)N3)cc1 | – | fasted healthy humans, plasma | oral, 35 mg single dose, with 1800 mg Labrasol, geometric mean | – | Vz/F | 2660 L |
| O=C(O)c1cc(O)c(O)c(O)c1 | – | zebrafish embryo AB wild type | immersion semi-static, 24 h | – | LC50 | > 500 µg/mL |
| CN[C@@](C)(C[18F])C(=O)O | – | SCID mouse MDA-MB-468 xenograft, spleen | 30 min, post injection | – | tissue uptake | 10 ± 1.3 %ID/g |
| O=C(CC(=O)c1ccccc1)c1ccccc1 | – | Sprague-Dawley rat, male, plasma | oral, 10 mg/kg, regular emulsion | – | absolute bioavailability | 13.6 ± 2.3% |
| [123I]c1cncc(OC[C@@H]2CCN2)c1 | SPECT | human, head of caudate nucleus | intravenous bolus, 9.1 mCi | baseline: tissue over plasma | tissue/plasma ratio | 14.2 |
| CC(=O)C[C@@H](c1ccccc1)c1c(O)c2ccc(O)cc2oc1=O | substrate, item: 7-hydroxywarfarin 7-glucuronide | pooled human liver microsomes | – | – | Km | 929 µM |
| Cc1c(P(=S)(c2ccccc2)c2ccccc2)n2ccccc2[n+]1C/C=C/c1ccccc1 | – | mouse, brain | intraperitoneal, 10 mg/kg, 4.98 min | – | concentration | 14 ng/g |
| CSCC[C@H](NC(C)=O)C(=O)N[C@H]1CSSC[C@@H](C(=O)NCC(=O)N[C@@H](CO)C(=O)NCC(=O)N[C@@H](CO)C(=O)N[C@@H](CC(=O)O)C(=O)N[C@@H](Cc2ccc(O)cc2)C(=O)N[C@@H](CCCCN)C(=O)N[C@@H](CC(=O)O)C(=O)N[C@@H](CC(=O)O)C(=O)N[C@@H](CC(=O)O)C(=O)N[C@@H](CC(=O)O)C(=O)N[C@@H](CCCCN)C(N)=O)NC(=O)[C@H](Cc2ccccc2)NC(=O)[C@@H]2CCCN2C(=O)[C@H](Cc2c[nH]c3ccccc23)NC(=O)[C@H](CC(C)C)NC(=O)[C@H](CCSC)NC(=O)[C@H](Cc2c[nH]cn2)NC(=O)[C@H](Cc2ccccc2)NC(=O)[C@H](Cc2c[nH]cn2)NC(=O)[C@H]([C@@H](C)O)NC(=O)[C@H](Cc2ccccc2)NC1=O | – | pooled human plasma | 1 µM, pH 7.4, 37 °C, 80% plasma | – | t1/2 | 3.5 h |
| Oc1ccc2ccc3cccc4ccc1c2c34 | HPLC-fluorescence | Wistar rat, male, ileum | oral, 4 mg/kg PY, 24 h | – | tissue concentration | 10700 ± 1000 ng/g |
| CCCCCOc1ccc(-c2ccc(-c3ccc(C(=O)N[C@H]4C[C@@H](O)[C@@H](O)NC(=O)[C@@H]5[C@@H](O)[C@@H](C)CN5C(=O)[C@H]([C@@H](C)O)NC(=O)[C@H]([C@H](O)[C@@H](O)c5ccc(O)cc5)NC(=O)[C@@H]5C[C@@H](O)CN5C(=O)[C@H]([C@@H](C)O)NC4=O)cc3)cc2)cc1 | – | human patients aged 5 to sample A years, plasma | iv, loading 3.0 mg/kg then 1.5 mg/kg daily, steady state, mean | – | Cmin,ss | 2520 ng/mL |
| CC[C@H](C)[C@H](NC(=O)[C@@H](N)CCCNC(=N)N)C(=O)N[C@H](C(=O)N1CCC[C@H]1C(=O)N[C@@H](C)C(N)=O)C(C)C | – | human, plasma | intravenous, 2 mg/kg, single dose, healthy volunteers | – | Cmax | 5870 ng/mL |
| O[C@H]1CCCN[C@@H]1CCCn1cnc2c(Cl)c(Cl)ccc21 | – | healthy human volunteers, plasma | oral, 50 mg, day 1, multiple ascending dose | – | Vz/F | 902 L |
| CC[C@H](C)[C@H](NC(=O)[C@H](CC(C)C)NC(=O)[C@H](Cc1c[nH]c2ccccc12)NC(=O)[C@H](CCC(N)=O)NC(=O)[C@@H](NC(=O)[C@H](Cc1ccccc1)NC(=O)[C@H](C)NC(=O)[C@H](CCCCNC(=O)COCCOCCNC(=O)COCCOCCNC(=O)CC[C@H](NC(=O)CCCCCCCCCCCCCCCCCCC(=O)O)C(=O)O)NC(=O)[C@H](CCC(N)=O)NC(=O)[C@H](C)NC(=O)[C@@H](NC(=O)[C@H](CCCCN)NC(=O)[C@H](CC(=O)O)NC(=O)[C@H](CC(C)C)NC(=O)C(C)(C)NC(=O)[C@@H](NC(=O)[C@H](CO)NC(=O)[C@H](Cc1ccc(O)cc1)NC(=O)[C@H](CC(=O)O)NC(=O)[C@H](CO)NC(=O)[C@@H](NC(=O)[C@H](Cc1ccccc1)NC(=O)[C@@H](NC(=O)CNC(=O)[C@H](CCC(=O)O)NC(=O)C(C)(C)NC(=O)[C@@H](N)Cc1ccc(O)cc1)[C@@H](C)O)[C@@H](C)O)[C@@H](C)CC)[C@@H](C)CC)C(C)C)C(=O)N[C@@H](C)C(=O)NCC(=O)NCC(=O)N1CCC[C@H]1C(=O)N[C@@H](CO)C(=O)N[C@@H](CO)C(=O)NCC(=O)N[C@@H](C)C(=O)N1CCC[C@H]1C(=O)N1CCC[C@H]1C(=O)N1CCC[C@H]1C(=O)N[C@@H](CO)C(N)=O | – | human, moderate hepatic impairment | subcutaneous, 5 mg | baseline: normal hepatic function | tmax difference | 0 h |
| Nc1nc(N)nc(N)n1 | LC-MS/MS | non-pregnant female rat, serum | oral, 1000 mg/kg/day, 10 days | – | serum concentration | 155000 ng/mL and 531000 ng/mL and 32100 ng/mL and 238000 ng/mL and 284000 ng/mL |
| Cc1cc(C(C#N)c2ccc(Cl)cc2)c(Cl)cc1NC(=O)c1cc(I)cc(I)c1O (stereo not drawn) | – | parasitized lambs, plasma | subcutaneous, 5 mg/kg, together with: moxidectin 0.2 mg/kg subcutaneous | – | AUC(0-LOQ) | 39500 ± 7820 µg·h/mL |
| CC(C)C[C@H](NC(=O)CNC(=O)c1ccc2c(c1)C(=O)OC21c2ccc(O)cc2Oc2cc(O)ccc21)C(=O)N[C@@H](Cc1c[nH]c2ccccc12)C(=O)N[C@@H](CCCNC(=N)N)C(=O)N[C@@H](C)C(=O)N[C@@H](CC(C)C)C(=O)N[C@@H](Cc1c[nH]c2ccccc12)C(=O)N[C@@H](CCCNC(=N)N)C(=O)N[C@@H](CC(C)C)C(=O)N[C@@H](CC(C)C)C(=O)N[C@@H](CCCNC(=N)N)C(=O)N[C@@H](CO)C(=O)N[C@@H](CC(C)C)C(=O)N[C@@H](Cc1c[nH]c2ccccc12)C(=O)N[C@@H](CCCNC(=N)N)C(=O)N[C@@H](CC(C)C)C(=O)N[C@@H](CC(C)C)C(=O)N[C@@H](Cc1c[nH]c2ccccc12)C(=O)N[C@@H](CCCNC(=N)N)C(=O)N[C@@H](C)C(=O)O | no effect | Sprague-Dawley rat, excised skin | 50 µmol/L, 37 °C, FAM-labelled CPP conjugate | baseline: free FAM | apparent skin permeability | no effect |
| O=c1[nH]c(Cc2ccccn2)nc2c1cnn2C1CCOCC1 | – | healthy men, extensive metabolizers, plasma | oral, 5 mg single dose, tablet, geometric mean | – | AUC(0-inf) | 0.0756 µM·h |
| CC(C)C[C@@H](NC(=O)[C@@H](Cc1ccccc1)NC(=O)[C@H](N)Cc1ccccc1)C(=O)N[C@H](CCCCN)C(=O)N1CCC(N)(C(=O)O)CC1 | item: total radioactivity | healthy human subjects | intravenous, time not given | – | dose recovered in urine | 80.5% |
| AAICTHLEV-OH (C-acid) | cysteine reduced state, reversed-phase HPLC | peptide, PBS | 48 h, pH 7.2, room temperature | – | 2-mercaptoethanol concentration | ≥ 1 mM |
| CCCCCOc1ccc(-c2cc(-c3ccc(C(=O)N[C@H]4C[C@@H](O)[C@@H](O)NC(=O)[C@@H]5[C@@H](O)[C@@H](C)CN5C(=O)[C@H]([C@H](O)CC(N)=O)NC(=O)[C@H]([C@H](O)[C@@H](O)c5ccc(O)c(OS(=O)(=O)O)c5)NC(=O)[C@@H]5C[C@@H](O)CN5C(=O)[C@H]([C@@H](C)O)NC4=O)cc3)no2)cc1 | – | preterm neonates below 1000 g, plasma | intravenous, 15 mg/kg/day, repeated dosing, mean | – | Vdss | 1.2 L |
| CSCC[C@@H]1NC(=O)[C@H](CC(=O)O)NC(=O)CNC(=O)[C@H](CCCNC(=N)N)NC(=O)[C@H](C)NC(=O)[C@H](CCC(=O)O)NC(=O)[C@H](CCCNC(=N)N)NC(=O)[C@@H]2CSSC[C@@H]3NC(=O)[C@H](CO)NC(=O)[C@H]([C@@H](C)O)NC(=O)[C@@H]4CCCN4C(=O)[C@H](C)NC(=O)[C@H](Cc4c[nH]c5ccccc45)NC(=O)[C@H](CC(=O)O)NC(=O)CNC(=O)[C@H](CCCNC(=N)N)NC(=O)CNC(=O)[C@H](CCC(N)=O)NC(=O)[C@@H]4CCCN4C(=O)[C@@H](NC(=O)CNC(=O)C(C)F)CSSC[C@H](NC(=O)CNC(=O)[C@H](C)NC(=O)[C@H](CC(C)C)NC(=O)[C@H](CSSC[C@@H](C(=O)NCC(N)=O)NC(=O)[C@H]([C@@H](C)O)NC(=O)[C@H](CCCNC(=N)N)NC(=O)[C@@H]4CCCN4C1=O)NC(=O)[C@H](CC(=O)O)NC(=O)[C@H](CO)NC(=O)[C@H](CC(=O)O)NC(=O)[C@H](CCC(N)=O)NC(=O)[C@H](CO)NC3=O)C(=O)N[C@@H](C(C)C)C(=O)N2 (stereo partly drawn) [fluorine-18 labelled] | – | nude mice U-87 MG xenograft, liver | intravenous, 1 h | – | tissue uptake | 0.39 ± 0.07 %ID/g |
| Cc1cnc(C(=O)N[C@H]2CCCCC/C=C\[C@@H]3C[C@@]3(C(=O)NS(=O)(=O)C3CC3)NC(=O)[C@@H]3C[C@@H](Oc4nc5ccccc5c5ccccc45)CN3C2=O)cn1 | – | healthy human volunteers, plasma | oral, dose not given, alone, omeprazole interaction study | – | Cmax | 2020 ng/mL |

Repeated from above:
| Substance | assay | system | conditions | scale | measurement | value |
| --- | --- | --- | --- | --- | --- | --- |
| [123I]c1cncc(OC[C@@H]2CCN2)c1 | SPECT | human, head of caudate nucleus | intravenous bolus, 9.1 mCi | baseline: tissue over plasma | tissue/plasma ratio | 14.2 |
| CN[C@@](C)(C[18F])C(=O)O | – | SCID mouse MDA-MB-468 xenograft, spleen | 30 min, post injection | – | tissue uptake | 10 ± 1.3 %ID/g |
